Results of several laboratories.
Every numbered part comes from another study and shows a few of its results, in no order.

Block 1 — technique: RNA Bind-n-Seq; form: RNA; medium: in vitro; tested at: not given; reference: input RNA pool; direction: higher = stronger binding
Target: RING finger protein unkempt homolog, zinc fingers 1-6, GST-SBP tag (UNK, Homo sapiens, UniProt Q9C0B0, residues 30-357)
Setting: RNA with constant flanks, human and mouse sites, ends assumed
Shared flanks, not repeated: GGGAGUUCUACAGUCCGACGAUC … CAACAGAGGAUUGAGCAUCA
Construct (chain): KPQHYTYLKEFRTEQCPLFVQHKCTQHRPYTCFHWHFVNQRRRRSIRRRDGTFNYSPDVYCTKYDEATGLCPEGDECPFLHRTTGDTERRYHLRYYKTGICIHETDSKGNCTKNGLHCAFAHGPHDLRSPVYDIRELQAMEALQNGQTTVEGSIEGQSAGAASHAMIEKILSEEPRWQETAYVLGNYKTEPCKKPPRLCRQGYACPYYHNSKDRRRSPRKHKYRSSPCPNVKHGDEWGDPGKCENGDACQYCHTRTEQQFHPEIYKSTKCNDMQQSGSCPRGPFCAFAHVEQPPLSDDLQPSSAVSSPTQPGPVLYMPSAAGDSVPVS
Sequence	bound/input enrichment
AUUUUGUGCCAGUCACUCCUAGAAAAUCUAGACAAGCUUCCUGGAGAUUCACGAACAAGAAUAGGAUUCAUGACCUUUGAUAGCACUAUUCAUUUCUACAAUUUACAAGAAGGAUUAUCA	0.371 ratio
UUGGGAGGCGAGAAGAUGUGCAGGUUCCUGACAGCAGUGCAGGGAGGAAGUUUCAUCCUGUCCUCCGUGGGGAGCCAGUUGGUUCGAUUGAUUCCUGAAAGCUCAGGAAAGAUUCACCAG	0.143 ratio
GGAAAAUAUGUGUAUGUAGUAACAGAACUUAUGAAAGGAGGUGAAUUGCUGGAUAAGAUUCUUAGACAGAAGUUUUUCUCAGAGCGAGAGGCCAGCGCUGUCCUGUUUACUAUAACCAAA	0.306 ratio
AACAAAAGUUGACCCAAAAAAUCGUACUGUGUAAUCUUGGCUGGCAAUAAAGUCAUCAUAAAGUUCACCUGAAAACUGAUGUUUGGACAGUUUGCAUAUAUGCCUGUAAUCCCAGGUACU	0.038 ratio
GCAGGAGUCCGUCAGCAAGAAGGGGAGAGUCGGCUCAAUCUGGUGCAGAGAAAUGUUAAUGUCUUCAAAUUCAUUAUUCCUCAGAUCGUCAAGUACAGUCCUGAUUGCAUCAUAAUUGUG	0.226 ratio
UCUCCAAACCAGUAUUAUUUCAAUUAUGGCACUUGGGAGUGGGGUGAGAGCUAAACAUUGCACAGGGAAAGAAAAAAAAUAACUGCACUGACUUUAUAUCUUUUGAAUAUAAUUACUGUG	0.718 ratio
CUUCAAACCCCAGCUUCCACUUUCCUUGCCAUCUUCCCUCCUGGGCAUUGUUUUGCUGUCAUUAGAAGGAAACCAUUUUUUUUUUUCCCAAUUUACCCUGUUUAACCUGUGAGAGUCUCU	2.1 ratio
AUGCUUUCAGUAGCAGGAAUGGCAUUGUUUAAAAAGCUGAUGGCAGGGUAAGCAUUUGGGUUAGUGUUUUAUUAACAUAUUUGUAAGUACUUGUUCAUUGUGGAAAUGUGUCCUUGACUA	0.236 ratio

Block 2 — technique: protein-binding microarray; form: double-stranded DNA, one strand shown; medium: in vitro; tested at: 250 nM; setting: 60-bp whole probe; together with: salmon DNA 0.4 mg/ml; reference: random background probes; direction: higher = stronger binding; shared flanks, not repeated: GCCTAGCAC … GTCTTGATTCGCTTGACGCTGCTG
Target: Interferon regulatory factor 5, full length, phosphomimetic (IRF5, Homo sapiens, UniProt Q13568-2, residues 1-514, K96S/S451D/S453D/S456D/S462D)
Sequence	log fluorescence [z-score]
TCCTATATCTGAACCGCAGAGTGCTAG	0.414
GATGAACTGGGGACTGGAGACGTGCTA	-0.605
TCAGAATTACCTCTGGAACTGTGCTAG	-0.512
TAGTTGCAAGCCATGGGTGGGTGCTAG	-0.605
TTCGAACTGGGGACTGGATTAGTGCTA	-0.299
TTTCCTTTACATTCCCCATTGTGCTAG	3.22
TTAGAAATCAGACTGGATTAGTGCTAG	0.0276
TCATCATTGCCTATTTTACTGTGCTAG	0.582
GACGATATCGGTTTCGAGACGTGCTAG	7.71
GACAATCTCAGTCTCGAGACGTGCTAG	0.398
GACGGTCTCGGCTTCGGGACGTGCTAG	-0.179
TTAGGACTGGGGAATCGGTTAGTGCTA	-0.0518
TTTGCTTTCCTTTATGTACTGTGCTAG	2.05
TTAGGTATCGGTAACGGTTAGTGCTAG	6.22
CTGACTTTGGAGATGACTCAGTGCTAG	-0.22
TTCGGTTTCCTTCTCCTTTAGTGCTAG	2.26
TTAGGTCTCCTTATCCTGTAGTGCTAG	-0.285
GACGGATTGGGTCTCGGGACGTGCTAG	-0.187
TCATATCTCTGTTTTTGACTGTGCTAG	1.01

Block 3 — technique: RNAcompete; form: RNA; medium: in vitro; tested at: 20 nM; setting: 7-mer, probes averaged, single round; reference: mean of 7-mers; direction: higher = stronger binding
Target: PABPC1L2, full length, GST fusion (mouse, UniProt A0ABA7IW68)
Target sequence (chain): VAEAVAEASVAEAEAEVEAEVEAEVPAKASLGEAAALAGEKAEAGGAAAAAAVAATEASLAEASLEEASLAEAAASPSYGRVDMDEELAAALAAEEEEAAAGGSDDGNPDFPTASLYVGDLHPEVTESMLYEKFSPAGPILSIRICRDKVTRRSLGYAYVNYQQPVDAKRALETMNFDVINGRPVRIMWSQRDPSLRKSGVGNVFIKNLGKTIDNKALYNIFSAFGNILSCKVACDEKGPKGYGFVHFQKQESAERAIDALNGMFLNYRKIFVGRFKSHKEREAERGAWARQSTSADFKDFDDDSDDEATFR
Sequence	7-mer Z-score
GGUCGCA	-0.139
UCUAGGC	-0.05
GUACGAG	-0.13
AAAUACC	1.32
GCAUCUA	0.00617
CUUCCAA	-0.0989
GUGCUCA	-0.233
ACUACAU	-0.124
ACCUCGU	-0.362
UACGCAU	-0.191
UUUUGAG	-0.19
UCCCUAA	-0.186
AAAAAUG	19.1
UACUUAC	-0.188
CGGACAU	0.0261
UUGUGUU	-0.432
UCGGUUA	-0.124
GUGAGGG	0.263
CCUCUCU	-0.367
CUAACAG	-0.0863
UUCUAUC	-0.344
GUGUUAA	-0.17

Block 4 — technique: RNA Bind-n-Seq; form: RNA; medium: in vitro; tested at: 365 nM; reference: no-protein control; direction: higher = stronger binding
Target: RNA binding protein fox-1 homolog 2, RRM domain, GST-SBP tag (RBFOX2, Homo sapiens, UniProt O43251-10, residues 100-194)
Setting: natural RNA segment, single round, ends assumed
Shared flanks, not repeated: GGGAGUUCUACAGUCCGACGAUC … UGGAAUUCUCGGGUGCCAA
Residues (chain): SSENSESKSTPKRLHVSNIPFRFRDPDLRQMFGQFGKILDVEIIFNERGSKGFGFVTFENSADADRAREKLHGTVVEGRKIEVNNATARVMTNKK
Sequence	RBNS enrichment (R)
UGUAAACCACAUAAUUUCUGUACAUCCCAAAGGAUGAGAAGUGUGACCUUCAAGAAAAUGGAAAUAUUUGUAAAUUCUUGGUAAUGCCUCCGUUGUAAUUAAUGAAACUA	0.529
UCAGGCUUUAGGAACUGAAGAGGGUUUCUGAAGAUCUAUCCAGCACUCCGAUGGCCAGCAACAACACCGCCAGCAUAGCACAAGCCAGGAAGCUGGUAGAGCAGCUUAAG	0.39
CUUGUAAAUAUAUCCUAUCCGAAGUGUCAGCAGUUACGUUAGUUAAUACCGUGUUAUCUGCUGUAUUUUCCCUGUGUGUAUAAUGUAUCUCCUUUCAGAACAGGAAUGUG	0.221
CCGUCUUCCCUCGGCUCUUGUUGGUGUGUGCAUGUGCUGCGUGCACACCGGGUUGUAUGGCGUCAGCAGGUGUGAGCUGUCCCUUGCUUCUCUUGUCACACAGUGCCCCU	0.4
CCUCUUUCCUGGGGACAAAAGGCUCUCCUAGACAUGAGUGAGCAGGUAAUCGCCCAACUUGGCUUUGGGGAAAGUCAGAGUCUGACAGAGCUGAGCAUUGUCUCAUCCAG	0.367
GCAUUGAUCUAACCUUUUUCCCCCCCAUUUCAGUUGCAGUUUUUGUAGAAUGGCUUUUUCUUUUUCCUCUUAAGAGUUCUAUUCUUCAGGUAGAUAAUUUUUCAAAUGUG	1.2
GGGGGAGAAGCUGAAAGAUAAGGACUCAACCCAAGUCAUUUGUCUUCUUUCCUGCUAUGCUGUGAGCUACUGAGCUUUACAGCCAUGAAAACUAUUGUAGGCUCCCUCGC	0.222
AGUGCCCAGGGUCCUUUUCUGGCGAGAUGAGGCCAUGCACCACUUGCUCAGCACAGAGGCCAGCUUGCGGGAGCUCUGCGUCUCAGGCAGGUGGGACCUCUGAGACACUG	0.448
